Measurements collected from several papers.
Lines come from different studies, so protocols differ. ± marks the error that the study gave. Converted amounts (≈) assume the structure as drawn.
Sequence of UniProt Q9H3R0 (whole entry, looked up): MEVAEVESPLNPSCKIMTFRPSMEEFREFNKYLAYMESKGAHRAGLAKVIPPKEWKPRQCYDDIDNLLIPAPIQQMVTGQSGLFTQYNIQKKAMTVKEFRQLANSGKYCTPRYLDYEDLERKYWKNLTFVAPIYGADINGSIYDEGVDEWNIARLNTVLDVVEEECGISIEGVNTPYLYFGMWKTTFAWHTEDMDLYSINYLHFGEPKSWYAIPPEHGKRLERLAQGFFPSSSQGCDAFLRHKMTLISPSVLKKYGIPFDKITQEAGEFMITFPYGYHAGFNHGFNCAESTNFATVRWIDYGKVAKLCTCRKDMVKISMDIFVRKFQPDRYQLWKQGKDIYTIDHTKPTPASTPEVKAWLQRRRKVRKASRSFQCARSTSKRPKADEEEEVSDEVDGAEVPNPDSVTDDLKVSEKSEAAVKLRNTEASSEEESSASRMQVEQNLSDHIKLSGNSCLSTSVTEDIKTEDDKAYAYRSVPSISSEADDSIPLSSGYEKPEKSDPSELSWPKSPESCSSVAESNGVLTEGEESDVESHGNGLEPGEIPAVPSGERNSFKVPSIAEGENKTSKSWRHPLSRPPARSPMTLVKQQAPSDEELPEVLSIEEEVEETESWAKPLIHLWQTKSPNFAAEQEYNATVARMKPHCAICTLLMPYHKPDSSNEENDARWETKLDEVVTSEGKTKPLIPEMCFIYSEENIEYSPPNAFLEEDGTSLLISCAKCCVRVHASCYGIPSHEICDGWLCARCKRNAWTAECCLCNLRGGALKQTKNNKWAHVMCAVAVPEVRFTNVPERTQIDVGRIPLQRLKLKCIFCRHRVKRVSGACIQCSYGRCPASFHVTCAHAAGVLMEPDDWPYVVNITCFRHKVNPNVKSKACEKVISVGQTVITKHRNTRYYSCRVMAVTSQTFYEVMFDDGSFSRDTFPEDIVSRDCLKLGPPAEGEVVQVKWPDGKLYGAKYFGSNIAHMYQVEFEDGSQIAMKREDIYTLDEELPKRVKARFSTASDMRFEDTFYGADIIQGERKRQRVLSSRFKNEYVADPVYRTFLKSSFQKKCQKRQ

CC[C@H](C)[C@H](NC(=O)[C@H](C)NC(=O)[C@H](CCC(=O)O)NC(=O)[C@H](Cc1c[nH]cn1)NC(=O)[C@@H](NC(=O)[C@H](CCCCN)NC(=O)[C@H](CCC(N)=O)NC(=O)[C@H](Cc1ccccc1)NC(=O)[C@@H](NC(=O)[C@H](CCCCN)NC(=O)[C@H](CCCCN)NC(=O)[C@H](CC(C)C)NC(=O)[C@H](C)NC(=O)[C@H](CC(N)=O)NC(=O)[C@@H](N)CC(C)C)C(C)C)[C@@H](C)CC)C(=O)N[C@@H](CCCCN)C(N)=O has an MIC of 4 µM (≈ 7.52 µg/mL) (Staphylococcus aureus; MW2, resistant; 18 h, 37 °C).
For Cc1n[nH]c(C)c1CCCOc1cc(OCCCc2cn(CCOCCOCCOCCC(=O)N[C@@H](CCC(=O)O)C(=O)N[C@@H](Cc3c[nH]cn3)C(=O)N[C@@H](Cc3c[nH]c4ccccc34)C(=O)N[C@@H](CO)C(=O)N[C@@H](Cc3ccc(O)cc3)C(=O)NCC(=O)N[C@@H](CC(C)C)C(=O)N[C@@H](CCCNC(=N)N)C(=O)N3CCC[C@H]3C(=O)NCC(N)=O)nn2)cc(C(=O)O)c1, the Kd was 0.38 µM (Transthyretin (TTR, Homo sapiens, UniProt P02766); binding).
With CC[C@H](C)[C@H](NC(=O)[C@H](CC(C)C)NC(=O)[C@H](CCCCN)NC(=O)[C@@H](NC(=O)[C@H](C)NC(=O)[C@H](CCC(=O)O)NC(=O)[C@H](Cc1c[nH]cn1)NC(=O)[C@@H](NC(=O)[C@H](CCCCN)NC(=O)[C@H](CCC(N)=O)NC(=O)[C@H](Cc1ccccc1)NC(=O)[C@@H](NC(=O)[C@H](CCCCN)NC(=O)[C@H](CCCCN)NC(=O)[C@H](CC(C)C)NC(=O)[C@H](C)NC(=O)[C@H](CC(N)=O)NC(=O)[C@@H](N)CC(C)C)C(C)C)[C@@H](C)CC)[C@@H](C)CC)C(N)=O the MIC was 2 µM (≈ 4.21 µg/mL) (Pseudomonas aeruginosa; 4007, resistant; 18 h, 37 °C).
CC(C)c1ccc(N(C)c2ccc3c(c2)OCC[C@H]3CNc2cnccc2C(=O)O)cc1 has a kon of 4500 ± 167 M⁻¹ s⁻¹ (KDM4C (Homo sapiens, UniProt Q9H3R0); H3K9me3 demethylation, inhibitor, TR-FRET; enzyme preincubation).
CC[C@H](C)[C@H](NC(=O)[C@H](CCCCN)NC(=O)[C@H](CCC(N)=O)NC(=O)[C@H](Cc1ccccc1)NC(=O)[C@@H](NC(=O)[C@H](CCCCN)NC(=O)[C@H](CCCCN)NC(=O)[C@H](CC(C)C)NC(=O)[C@H](C)NC(=O)[C@H](CC(N)=O)NC(=O)[C@@H](N)CC(C)C)C(C)C)C(=O)N[C@@H](Cc1c[nH]cn1)C(N)=O gave a survival of 100% (Staphylococcus aureus USA300; BALB/c mouse, sepsis model; intraperitoneal, 2 mg/kg, 4 days).
With NC1CC1c1ccc(NC(=O)c2cccc3ccccc23)cc1 (stereo not drawn) the IC50 was 8.7 ± 1.9 µM (MV4-11 AML cells).

For quick reference, copied from above:
CC[C@H](C)[C@H](NC(=O)[C@H](C)NC(=O)[C@H](CCC(=O)O)NC(=O)[C@H](Cc1c[nH]cn1)NC(=O)[C@@H](NC(=O)[C@H](CCCCN)NC(=O)[C@H](CCC(N)=O)NC(=O)[C@H](Cc1ccccc1)NC(=O)[C@@H](NC(=O)[C@H](CCCCN)NC(=O)[C@H](CCCCN)NC(=O)[C@H](CC(C)C)NC(=O)[C@H](C)NC(=O)[C@H](CC(N)=O)NC(=O)[C@@H](N)CC(C)C)C(C)C)[C@@H](C)CC)C(=O)N[C@@H](CCCCN)C(N)=O has an MIC of 4 µM (≈ 7.52 µg/mL) (Staphylococcus aureus; MW2, resistant; 18 h, 37 °C).
